Measurements from different studies.
A part holds a random share of what one study measured. “And” joins repeats or separate records; there may be more than shown.
UniProt Q9UQ88, sequence (whole entry, looked up): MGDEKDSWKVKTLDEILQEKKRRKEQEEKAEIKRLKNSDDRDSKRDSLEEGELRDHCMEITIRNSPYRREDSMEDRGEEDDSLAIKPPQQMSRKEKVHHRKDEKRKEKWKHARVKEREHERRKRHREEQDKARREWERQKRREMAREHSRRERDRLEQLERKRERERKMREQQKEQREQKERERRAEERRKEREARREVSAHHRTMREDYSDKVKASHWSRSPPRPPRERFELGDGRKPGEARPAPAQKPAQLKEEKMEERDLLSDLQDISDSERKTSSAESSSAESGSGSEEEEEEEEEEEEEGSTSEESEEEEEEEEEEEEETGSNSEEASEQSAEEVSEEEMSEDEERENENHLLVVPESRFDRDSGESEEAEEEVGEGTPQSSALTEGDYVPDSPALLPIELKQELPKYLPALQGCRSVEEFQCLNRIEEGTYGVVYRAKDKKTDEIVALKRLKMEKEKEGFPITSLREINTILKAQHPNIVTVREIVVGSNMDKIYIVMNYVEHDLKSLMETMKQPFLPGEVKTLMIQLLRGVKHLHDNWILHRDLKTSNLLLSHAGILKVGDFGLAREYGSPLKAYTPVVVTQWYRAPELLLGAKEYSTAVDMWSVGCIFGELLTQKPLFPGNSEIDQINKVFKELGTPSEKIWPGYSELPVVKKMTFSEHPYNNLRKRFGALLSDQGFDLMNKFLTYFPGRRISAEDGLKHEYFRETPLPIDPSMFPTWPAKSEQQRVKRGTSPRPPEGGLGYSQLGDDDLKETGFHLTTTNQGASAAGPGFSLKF
UniProt Q15831, sequence (whole entry, looked up): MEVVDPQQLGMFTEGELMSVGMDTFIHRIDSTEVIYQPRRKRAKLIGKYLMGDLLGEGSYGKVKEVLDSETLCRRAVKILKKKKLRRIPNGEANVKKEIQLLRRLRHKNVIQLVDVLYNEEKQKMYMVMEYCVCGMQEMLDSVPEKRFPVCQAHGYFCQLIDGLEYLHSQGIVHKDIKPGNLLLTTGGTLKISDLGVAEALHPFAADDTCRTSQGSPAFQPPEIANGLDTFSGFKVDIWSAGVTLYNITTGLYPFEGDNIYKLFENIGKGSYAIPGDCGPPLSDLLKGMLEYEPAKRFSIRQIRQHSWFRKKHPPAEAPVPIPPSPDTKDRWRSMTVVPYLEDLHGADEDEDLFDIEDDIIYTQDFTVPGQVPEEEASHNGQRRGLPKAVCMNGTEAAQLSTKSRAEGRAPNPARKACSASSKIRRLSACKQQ
UniProt Q2M2I8, sequence (whole entry, looked up): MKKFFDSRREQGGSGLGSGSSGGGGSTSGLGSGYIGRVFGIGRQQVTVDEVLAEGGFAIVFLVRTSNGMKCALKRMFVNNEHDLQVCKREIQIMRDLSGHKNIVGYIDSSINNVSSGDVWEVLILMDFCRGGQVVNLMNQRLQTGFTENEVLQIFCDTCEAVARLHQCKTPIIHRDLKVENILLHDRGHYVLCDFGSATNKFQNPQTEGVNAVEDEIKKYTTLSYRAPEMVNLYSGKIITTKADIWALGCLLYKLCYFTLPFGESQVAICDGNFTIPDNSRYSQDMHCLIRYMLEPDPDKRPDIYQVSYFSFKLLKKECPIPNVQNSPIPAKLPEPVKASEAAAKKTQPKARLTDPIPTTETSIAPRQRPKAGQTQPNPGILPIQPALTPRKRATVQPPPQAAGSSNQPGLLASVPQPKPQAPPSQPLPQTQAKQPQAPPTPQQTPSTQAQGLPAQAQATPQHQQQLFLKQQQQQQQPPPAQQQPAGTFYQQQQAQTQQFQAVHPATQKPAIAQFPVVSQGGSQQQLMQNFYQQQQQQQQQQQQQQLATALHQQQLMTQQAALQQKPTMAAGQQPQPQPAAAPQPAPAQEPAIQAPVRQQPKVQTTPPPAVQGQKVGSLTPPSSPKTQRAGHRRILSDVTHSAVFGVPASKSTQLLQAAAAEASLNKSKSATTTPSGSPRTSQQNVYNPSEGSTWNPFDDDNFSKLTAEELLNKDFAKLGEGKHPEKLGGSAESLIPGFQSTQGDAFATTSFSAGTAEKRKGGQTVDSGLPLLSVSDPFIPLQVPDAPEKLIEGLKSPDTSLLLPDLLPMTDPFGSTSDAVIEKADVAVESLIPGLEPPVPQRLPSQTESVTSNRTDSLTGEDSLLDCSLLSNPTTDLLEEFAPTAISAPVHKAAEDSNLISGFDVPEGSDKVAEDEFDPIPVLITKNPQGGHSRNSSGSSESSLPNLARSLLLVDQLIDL
UniProt P08631, sequence (whole entry, looked up): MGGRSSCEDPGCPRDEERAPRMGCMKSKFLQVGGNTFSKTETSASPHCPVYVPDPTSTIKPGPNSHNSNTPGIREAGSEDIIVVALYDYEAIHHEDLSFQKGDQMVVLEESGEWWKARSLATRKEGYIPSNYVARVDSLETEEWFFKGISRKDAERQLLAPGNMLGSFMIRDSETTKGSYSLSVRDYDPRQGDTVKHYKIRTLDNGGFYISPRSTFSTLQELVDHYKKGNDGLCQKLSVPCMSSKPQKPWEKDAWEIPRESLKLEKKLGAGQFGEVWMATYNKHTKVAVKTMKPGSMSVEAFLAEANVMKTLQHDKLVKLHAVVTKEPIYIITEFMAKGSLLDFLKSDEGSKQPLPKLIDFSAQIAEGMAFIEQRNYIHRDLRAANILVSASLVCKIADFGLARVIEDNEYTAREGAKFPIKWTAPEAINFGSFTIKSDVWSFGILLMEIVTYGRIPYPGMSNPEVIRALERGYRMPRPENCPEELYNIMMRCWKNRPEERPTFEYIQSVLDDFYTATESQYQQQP
UniProt Q15375, sequence (whole entry, looked up): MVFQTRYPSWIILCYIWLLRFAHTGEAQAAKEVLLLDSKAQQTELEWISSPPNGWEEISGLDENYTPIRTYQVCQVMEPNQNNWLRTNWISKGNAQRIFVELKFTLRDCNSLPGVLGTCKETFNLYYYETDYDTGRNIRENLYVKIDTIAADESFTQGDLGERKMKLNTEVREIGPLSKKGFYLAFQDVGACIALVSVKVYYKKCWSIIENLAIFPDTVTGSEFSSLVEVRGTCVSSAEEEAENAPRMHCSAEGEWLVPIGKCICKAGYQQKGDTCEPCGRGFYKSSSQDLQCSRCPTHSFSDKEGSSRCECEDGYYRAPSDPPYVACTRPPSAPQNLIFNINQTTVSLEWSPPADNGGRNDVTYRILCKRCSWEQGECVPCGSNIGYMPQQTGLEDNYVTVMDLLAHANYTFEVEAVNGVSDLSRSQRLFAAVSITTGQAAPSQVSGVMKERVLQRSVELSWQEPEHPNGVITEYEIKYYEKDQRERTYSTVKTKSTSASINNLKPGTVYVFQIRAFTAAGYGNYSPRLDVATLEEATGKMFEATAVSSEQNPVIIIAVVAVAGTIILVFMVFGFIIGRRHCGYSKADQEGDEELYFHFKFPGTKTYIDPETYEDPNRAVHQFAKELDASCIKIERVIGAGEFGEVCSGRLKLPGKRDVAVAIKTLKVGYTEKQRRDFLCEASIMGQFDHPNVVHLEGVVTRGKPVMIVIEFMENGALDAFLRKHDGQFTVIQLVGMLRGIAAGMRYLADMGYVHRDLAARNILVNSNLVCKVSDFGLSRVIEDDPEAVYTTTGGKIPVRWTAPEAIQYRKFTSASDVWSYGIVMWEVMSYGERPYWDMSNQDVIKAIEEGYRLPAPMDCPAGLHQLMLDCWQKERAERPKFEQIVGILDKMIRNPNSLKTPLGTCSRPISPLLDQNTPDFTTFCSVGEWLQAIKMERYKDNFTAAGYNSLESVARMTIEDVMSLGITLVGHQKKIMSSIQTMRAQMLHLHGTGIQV
UniProt Q6ZN16, sequence (whole entry, looked up): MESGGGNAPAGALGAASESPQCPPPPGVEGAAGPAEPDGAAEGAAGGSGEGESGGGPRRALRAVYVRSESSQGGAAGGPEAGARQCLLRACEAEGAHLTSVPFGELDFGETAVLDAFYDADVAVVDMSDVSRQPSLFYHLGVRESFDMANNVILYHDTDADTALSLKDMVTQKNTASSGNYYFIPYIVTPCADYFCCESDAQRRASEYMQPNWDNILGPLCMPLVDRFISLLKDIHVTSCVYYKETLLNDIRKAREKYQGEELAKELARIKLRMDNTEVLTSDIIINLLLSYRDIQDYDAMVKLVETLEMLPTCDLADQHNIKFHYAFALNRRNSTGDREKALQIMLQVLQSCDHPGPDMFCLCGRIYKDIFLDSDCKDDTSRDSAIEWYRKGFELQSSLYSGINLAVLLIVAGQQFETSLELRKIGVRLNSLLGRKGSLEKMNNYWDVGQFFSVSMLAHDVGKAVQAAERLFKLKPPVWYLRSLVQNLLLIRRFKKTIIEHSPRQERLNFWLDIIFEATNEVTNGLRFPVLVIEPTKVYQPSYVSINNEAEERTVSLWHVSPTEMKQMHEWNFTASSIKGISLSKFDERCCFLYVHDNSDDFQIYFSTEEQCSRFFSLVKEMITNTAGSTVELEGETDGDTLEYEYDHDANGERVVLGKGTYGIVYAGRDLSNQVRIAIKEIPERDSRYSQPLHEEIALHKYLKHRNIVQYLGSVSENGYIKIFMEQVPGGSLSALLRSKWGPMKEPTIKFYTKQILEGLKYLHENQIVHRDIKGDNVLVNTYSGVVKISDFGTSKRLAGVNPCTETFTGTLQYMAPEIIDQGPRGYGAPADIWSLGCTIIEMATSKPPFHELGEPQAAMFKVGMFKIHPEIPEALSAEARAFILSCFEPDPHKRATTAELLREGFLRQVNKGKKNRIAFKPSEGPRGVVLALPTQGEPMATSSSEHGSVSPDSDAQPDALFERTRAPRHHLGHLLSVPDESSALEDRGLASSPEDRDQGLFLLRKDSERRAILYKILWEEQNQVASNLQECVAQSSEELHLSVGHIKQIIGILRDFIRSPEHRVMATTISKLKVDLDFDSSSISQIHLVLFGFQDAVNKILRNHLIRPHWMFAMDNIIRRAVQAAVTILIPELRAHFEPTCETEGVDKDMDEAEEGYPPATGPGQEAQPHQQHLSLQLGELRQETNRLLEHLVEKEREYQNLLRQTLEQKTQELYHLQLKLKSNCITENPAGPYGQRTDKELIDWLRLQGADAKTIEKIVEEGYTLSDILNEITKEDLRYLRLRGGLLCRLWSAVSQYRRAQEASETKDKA

Set 1 — tested at: 1 µM
SMILES: COc1cccc(CNC(=O)c2nc3scc(COCc4ccc(C(=O)O)cc4)c3c(=O)[nH]2)c1
target | effect on | technique | remaining binding [%]
Proto-oncogene tyrosine-protein kinase Src (SRC, Homo sapiens, UniProt P12931) | cell-free assay | competition with immobilised ligand | 100
Cyclin-dependent kinase 11A (CDK11A, Homo sapiens, UniProt Q9UQ88) | cell-free assay | competition with immobilised ligand | 99.2
Ribosomal protein S6 kinase alpha-6, C-terminal kinase domain (RPS6KA6, Homo sapiens, UniProt Q9UK32) | cell-free assay | competition with immobilised ligand | 100
Serine/threonine-protein kinase STK11 (STK11, Homo sapiens, UniProt Q15831) | cell-free assay | competition with immobilised ligand | 97.2
Serine/threonine-protein kinase SIK2 (SIK2, Homo sapiens, UniProt Q9H0K1) | cell-free assay | competition with immobilised ligand | 86.4
Tyrosine-protein kinase HCK (HCK, Homo sapiens, UniProt P08631) | cell-free assay | competition with immobilised ligand | 79.7
RAC-beta serine/threonine-protein kinase (AKT2, Homo sapiens, UniProt P31751) | cell-free assay | competition with immobilised ligand | 93.3
Ephrin type-A receptor 7 (EPHA7, Homo sapiens, UniProt Q15375) | cell-free assay | competition with immobilised ligand | 86.5
BMP-2-inducible protein kinase (BMP2K, Homo sapiens, UniProt Q9NSY1) | cell-free assay | competition with immobilised ligand | 92.3
Inhibitor of nuclear factor kappa-B kinase subunit alpha (CHUK, Homo sapiens, UniProt O15111) | cell-free assay | competition with immobilised ligand | 64.8
Dual specificity mitogen-activated protein kinase kinase 4 (MAP2K4, Homo sapiens, UniProt P45985) | cell-free assay | competition with immobilised ligand | 59.7
SRSF protein kinase 1 (SRPK1, Homo sapiens, UniProt Q96SB4) | cell-free assay | competition with immobilised ligand | 100
Mitogen-activated protein kinase kinase kinase kinase 2 (MAP4K2, Homo sapiens, UniProt Q12851) | cell-free assay | competition with immobilised ligand | 83
Receptor-type tyrosine-protein kinase FLT3, autoinhibited (FLT3, Homo sapiens, UniProt P36888) | cell-free assay | competition with immobilised ligand | 62.5
AP2-associated protein kinase 1 (AAK1, Homo sapiens, UniProt Q2M2I8) | binding | – | 100
Mitogen-activated protein kinase kinase kinase 15 (MAP3K15, Homo sapiens, UniProt Q6ZN16) | cell-free assay | competition with immobilised ligand | 100

Set 2 — host: mouse; matrix: microsomes or S9; tested at: 2 µM; time: 0.5 h
SMILES | remaining compound [%]
Cc1nc2[nH]c(CCCCOCc3ccccc3)nc2cc1Br | 3.64
COc1cc2c(cc1OC)C1(c3ccoc3)OC(=O)C(=O)N1CC2 (centres unmarked) | 2.04
Cc1ccc(S(=O)(=O)N(C)c2ccccc2)s1 | 0.606
CCOC(=O)CNC(=O)N1Cc2c(sc3c2CCCC3)-n2cccc2C1c1ccc(C(C)C)cc1 (centres unmarked) | 0.44
Cc1ccc(C)c(CNc2cc(-n3ccnc3)ncn2)c1 | 24.4
O=C(O)C1CC=CCC1C(=O)/N=c1\[nH]ccs1 (centres unmarked) | 86.8
Cc1ccc(-c2noc(=O)n2Cc2ccc(S(=O)(=O)N(C)C)cc2)cc1 | 2.31
Cc1ccc(OCCCCN(C)C)c(C(C)(C)C)c1 | 2.66
CCCn1c(=O)c2ccc(C(=O)NC3CCCC3)cc2n2c(=O)n(Cc3ccc(C)cc3)nc12 | 23.9
Cc1cc(NC(C)c2cc(C)n(C)n2)cc(C)c1Cl (centres unmarked) | 9.27
OC(Cc1c[nH]c2ccccc12)(c1ccccc1)c1ccccc1 | 46

Set 3 — matrix: 1,9-decadiene/PBS; pH: 7.4
Structure (SMILES) | logD
CC(C)C[C@@H]1NC(=O)[C@H](C)NC(=O)[C@@H](CC(C)C)NC(=O)[C@H](C)NC(=O)[C@H](CC(C)C)NC(=O)[C@H](CC(C)C)NC(=O)[C@@H](CC(C)C)NC1=O | 0.479
CC(C)C[C@@H]1NC(=O)[C@H](C)NC(=O)[C@H](Cc2cscn2)NC(=O)[C@H](CCC(=O)N2CCCC2)NC(=O)[C@H](CC(C)C)NC(=O)[C@H](CC(C)C)NC(=O)[C@H](CC(C)C)NC1=O | -1.52
CC(C)C[C@@H]1NC(=O)[C@H](CC(C)C)NC(=O)[C@@H](CC(C)C)NC(=O)[C@H](C(C)C)NC(=O)[C@H](C)NC(=O)[C@H](Cc2cscn2)NC(=O)[C@H](CCC(=O)N2CCCC2)NC1=O | -2.32
CC(C)C[C@@H]1NC(=O)[C@H](Cc2cscn2)NC(=O)[C@H](CCC(=O)N2CCCC2)NC(=O)[C@H](CC(C)C)NC(=O)[C@@H](Cc2cscn2)NC(=O)[C@H](CC(C)C)NC(=O)[C@@H](CC(C)C)NC1=O | -1.16

Set 4 — cell line: mouse MPNST tumor cells; technique: high-content immunofluorescence imaging; measured: nuclear SOX9; tested at: 10 µM; time: 12 h; notes: mean of 2 replicates; reference: DMSO control; reading: higher = more nuclear SOX9
Compound | nuclear SOX9 intensity
O=C1C(=O)N(Cc2ccc(Cl)c(Cl)c2)c2ccccc21 | 137 % of DMSO
Cc1oc2ccccc2c1CNC(=O)NCc1cccs1 | 101 % of DMSO
O=S(=O)(NC1CCC(c2cc(F)ccc2F)(S(=O)(=O)c2ccc(Cl)cc2)CC1)C(F)(F)F (centres unmarked) | 108 % of DMSO
COc1cc(C(=O)NS(=O)(=O)c2ccccc2C)ccc1Cc1cn(C)c2ccc(NC(=O)OC3CCCC3)cc12 | 94.3 % of DMSO and 93.8 % of DMSO
Cn1cnc2ncn(Cc3nc(CCc4ccc(Cl)cc4)no3)c(=O)c21 | 102 % of DMSO
O=c1[nH]c2cc(Cl)ccc2c(O)c1-c1cccc(Oc2ccccc2)c1 | 100 % of DMSO
CN[C@@H]1[C@@H](O[C@H]2O[C@H](CO)[C@@H](N)[C@H](O)[C@H]2O)OC2C[C@@H](N)[C@@H](O[C@H]3[C@H](O)[C@@H](O)[C@H](N)C[C@@H]3N)OC2[C@@H]1O (some centres unmarked) | 72.2 % of DMSO
CC1CC(OC(=O)c2ccccc2O)CC(C)(C)C1 (centres unmarked) | 103 % of DMSO
Cc1cc(C)c(S(=O)(=O)N(Cc2ccc(-c3cccc(S(C)(=O)=O)c3)cc2)Cc2ccc(C(F)(F)F)o2)c(C)c1 | 88.7 % of DMSO
CCCCOc1c(C(=O)c2c(F)cc(C)cc2F)c[nH]c2nncc1-2 | 107 % of DMSO
CCc1cccc(CC)c1NC(=O)CN(CC(=O)O)CC(=O)O | 99.2 % of DMSO
CCOC(=O)C1=C(C)NC(=S)NC1c1cccc(O)c1 (centres unmarked) | 98.3 % of DMSO
Cc1cc(NC(=O)C(c2ccccc2)N2CCCc3ccccc32)no1 (centres unmarked) | 90.5 % of DMSO
